Results collected from several papers.
A part holds a random share of what one study measured.
Chain of UniProt Q07002 (whole entry, looked up): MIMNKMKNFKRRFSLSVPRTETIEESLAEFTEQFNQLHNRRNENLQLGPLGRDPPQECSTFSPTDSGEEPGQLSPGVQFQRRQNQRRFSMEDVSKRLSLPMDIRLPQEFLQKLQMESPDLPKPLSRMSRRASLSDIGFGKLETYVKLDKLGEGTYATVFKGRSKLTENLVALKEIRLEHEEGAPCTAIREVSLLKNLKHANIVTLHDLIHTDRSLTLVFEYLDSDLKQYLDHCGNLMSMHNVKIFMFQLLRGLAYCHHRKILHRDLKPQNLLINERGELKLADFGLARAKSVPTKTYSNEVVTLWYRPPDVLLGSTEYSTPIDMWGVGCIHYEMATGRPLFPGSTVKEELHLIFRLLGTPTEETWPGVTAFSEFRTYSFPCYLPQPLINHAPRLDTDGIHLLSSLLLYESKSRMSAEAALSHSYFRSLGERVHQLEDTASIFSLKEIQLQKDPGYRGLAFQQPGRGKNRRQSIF
Chain of UniProt O75582 (whole entry, looked up): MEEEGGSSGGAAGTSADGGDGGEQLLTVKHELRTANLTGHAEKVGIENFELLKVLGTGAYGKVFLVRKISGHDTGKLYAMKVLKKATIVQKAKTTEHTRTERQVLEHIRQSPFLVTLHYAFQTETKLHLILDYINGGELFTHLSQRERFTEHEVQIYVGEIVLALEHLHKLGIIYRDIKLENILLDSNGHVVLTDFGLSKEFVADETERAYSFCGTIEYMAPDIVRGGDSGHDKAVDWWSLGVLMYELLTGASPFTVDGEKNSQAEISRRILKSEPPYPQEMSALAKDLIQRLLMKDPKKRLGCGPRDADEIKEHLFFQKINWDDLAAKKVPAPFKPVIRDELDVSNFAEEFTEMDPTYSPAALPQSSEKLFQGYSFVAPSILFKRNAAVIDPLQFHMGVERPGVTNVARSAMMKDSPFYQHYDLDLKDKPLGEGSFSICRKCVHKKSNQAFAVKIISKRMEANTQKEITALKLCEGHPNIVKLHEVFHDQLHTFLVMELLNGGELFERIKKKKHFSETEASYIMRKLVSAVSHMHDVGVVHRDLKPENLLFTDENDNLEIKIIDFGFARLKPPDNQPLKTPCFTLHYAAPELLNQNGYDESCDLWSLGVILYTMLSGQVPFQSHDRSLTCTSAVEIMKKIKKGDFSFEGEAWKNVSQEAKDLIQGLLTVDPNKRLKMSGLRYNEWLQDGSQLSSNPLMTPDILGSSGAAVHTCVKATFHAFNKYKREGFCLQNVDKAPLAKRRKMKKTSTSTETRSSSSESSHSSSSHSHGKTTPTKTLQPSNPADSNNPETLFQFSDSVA
Chain of UniProt Q00534 (whole entry, looked up): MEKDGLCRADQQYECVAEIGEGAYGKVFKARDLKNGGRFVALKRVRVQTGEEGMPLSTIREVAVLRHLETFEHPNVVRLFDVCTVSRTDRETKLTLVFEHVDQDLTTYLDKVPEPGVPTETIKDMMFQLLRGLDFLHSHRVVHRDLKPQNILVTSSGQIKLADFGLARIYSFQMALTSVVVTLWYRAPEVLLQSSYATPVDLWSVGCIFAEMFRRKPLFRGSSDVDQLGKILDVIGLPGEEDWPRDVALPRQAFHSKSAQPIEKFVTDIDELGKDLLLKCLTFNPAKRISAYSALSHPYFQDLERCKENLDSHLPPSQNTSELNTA
Chain of UniProt P48730 (whole entry, looked up): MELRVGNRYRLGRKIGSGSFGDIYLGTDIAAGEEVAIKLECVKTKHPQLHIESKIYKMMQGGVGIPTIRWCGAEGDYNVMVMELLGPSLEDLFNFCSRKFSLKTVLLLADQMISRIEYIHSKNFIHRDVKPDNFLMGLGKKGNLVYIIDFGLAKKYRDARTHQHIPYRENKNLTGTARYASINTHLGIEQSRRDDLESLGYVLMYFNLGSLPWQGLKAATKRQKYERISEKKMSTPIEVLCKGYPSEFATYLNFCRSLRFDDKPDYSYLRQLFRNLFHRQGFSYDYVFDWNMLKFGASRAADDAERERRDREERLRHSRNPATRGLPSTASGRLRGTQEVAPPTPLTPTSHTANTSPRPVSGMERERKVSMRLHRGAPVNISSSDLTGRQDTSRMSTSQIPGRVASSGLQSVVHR
Chain of UniProt P29322 (whole entry, looked up): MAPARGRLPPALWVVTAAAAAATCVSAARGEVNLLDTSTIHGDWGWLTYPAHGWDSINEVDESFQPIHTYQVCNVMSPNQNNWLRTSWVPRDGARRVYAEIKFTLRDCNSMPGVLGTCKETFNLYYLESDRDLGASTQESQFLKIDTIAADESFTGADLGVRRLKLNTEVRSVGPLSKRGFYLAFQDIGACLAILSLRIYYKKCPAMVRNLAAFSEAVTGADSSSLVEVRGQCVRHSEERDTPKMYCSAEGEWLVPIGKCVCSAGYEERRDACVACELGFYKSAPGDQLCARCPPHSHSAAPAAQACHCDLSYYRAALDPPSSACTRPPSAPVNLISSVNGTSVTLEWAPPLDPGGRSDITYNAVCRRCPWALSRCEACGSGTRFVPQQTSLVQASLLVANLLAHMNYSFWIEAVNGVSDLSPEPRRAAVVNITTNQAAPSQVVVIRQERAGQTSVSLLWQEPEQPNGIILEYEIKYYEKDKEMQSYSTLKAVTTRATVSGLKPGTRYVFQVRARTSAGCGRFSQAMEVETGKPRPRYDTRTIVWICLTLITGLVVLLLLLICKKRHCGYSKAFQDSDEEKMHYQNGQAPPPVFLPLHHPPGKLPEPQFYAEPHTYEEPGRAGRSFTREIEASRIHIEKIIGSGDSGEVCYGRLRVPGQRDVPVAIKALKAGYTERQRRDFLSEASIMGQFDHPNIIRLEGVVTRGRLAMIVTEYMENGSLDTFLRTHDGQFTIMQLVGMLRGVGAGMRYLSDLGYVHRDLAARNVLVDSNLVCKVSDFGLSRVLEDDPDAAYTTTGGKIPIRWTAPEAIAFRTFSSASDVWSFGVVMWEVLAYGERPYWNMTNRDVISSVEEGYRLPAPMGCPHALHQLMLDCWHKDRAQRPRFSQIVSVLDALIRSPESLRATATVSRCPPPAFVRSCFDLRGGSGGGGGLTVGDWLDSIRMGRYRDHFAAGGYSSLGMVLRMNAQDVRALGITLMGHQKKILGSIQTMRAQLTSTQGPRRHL
Chain of UniProt Q9Y6E0 (whole entry, looked up): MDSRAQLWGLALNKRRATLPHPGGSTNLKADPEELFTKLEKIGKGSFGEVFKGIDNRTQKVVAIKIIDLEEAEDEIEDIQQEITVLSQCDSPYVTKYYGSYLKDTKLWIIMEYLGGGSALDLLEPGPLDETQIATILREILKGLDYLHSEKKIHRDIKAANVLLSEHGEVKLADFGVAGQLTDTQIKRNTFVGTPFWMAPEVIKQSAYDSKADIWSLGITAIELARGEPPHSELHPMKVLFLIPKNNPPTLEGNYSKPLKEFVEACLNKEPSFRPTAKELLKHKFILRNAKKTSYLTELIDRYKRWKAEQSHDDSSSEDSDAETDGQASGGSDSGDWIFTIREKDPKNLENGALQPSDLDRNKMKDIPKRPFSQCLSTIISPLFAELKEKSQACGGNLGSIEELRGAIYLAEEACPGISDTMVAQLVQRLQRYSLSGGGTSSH
Chain of UniProt Q04759 (whole entry, looked up): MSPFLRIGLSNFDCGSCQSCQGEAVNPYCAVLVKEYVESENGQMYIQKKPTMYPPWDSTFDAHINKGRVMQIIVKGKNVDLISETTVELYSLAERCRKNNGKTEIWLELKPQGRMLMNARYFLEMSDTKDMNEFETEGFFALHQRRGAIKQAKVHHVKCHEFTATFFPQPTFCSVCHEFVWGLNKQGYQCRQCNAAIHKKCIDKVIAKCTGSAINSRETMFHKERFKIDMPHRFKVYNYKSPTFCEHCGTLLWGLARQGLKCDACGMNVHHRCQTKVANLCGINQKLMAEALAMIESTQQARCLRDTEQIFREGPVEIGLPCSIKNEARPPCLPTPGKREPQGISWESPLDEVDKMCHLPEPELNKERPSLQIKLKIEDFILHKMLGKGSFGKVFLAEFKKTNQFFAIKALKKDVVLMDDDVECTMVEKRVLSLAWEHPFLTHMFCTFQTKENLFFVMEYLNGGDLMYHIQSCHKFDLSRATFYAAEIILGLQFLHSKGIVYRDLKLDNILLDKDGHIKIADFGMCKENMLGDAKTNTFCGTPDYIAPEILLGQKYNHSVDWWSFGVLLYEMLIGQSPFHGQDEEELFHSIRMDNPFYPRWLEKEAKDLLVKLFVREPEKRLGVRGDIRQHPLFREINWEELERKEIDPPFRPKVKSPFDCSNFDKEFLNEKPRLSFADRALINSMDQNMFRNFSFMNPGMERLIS

Block 1
Target: ATP-dependent RNA helicase DDX3X, helicase core (DDX3X, Homo sapiens, UniProt O00571, residues 132-607)
Chain of UniProt O00571 (132-607, looked up): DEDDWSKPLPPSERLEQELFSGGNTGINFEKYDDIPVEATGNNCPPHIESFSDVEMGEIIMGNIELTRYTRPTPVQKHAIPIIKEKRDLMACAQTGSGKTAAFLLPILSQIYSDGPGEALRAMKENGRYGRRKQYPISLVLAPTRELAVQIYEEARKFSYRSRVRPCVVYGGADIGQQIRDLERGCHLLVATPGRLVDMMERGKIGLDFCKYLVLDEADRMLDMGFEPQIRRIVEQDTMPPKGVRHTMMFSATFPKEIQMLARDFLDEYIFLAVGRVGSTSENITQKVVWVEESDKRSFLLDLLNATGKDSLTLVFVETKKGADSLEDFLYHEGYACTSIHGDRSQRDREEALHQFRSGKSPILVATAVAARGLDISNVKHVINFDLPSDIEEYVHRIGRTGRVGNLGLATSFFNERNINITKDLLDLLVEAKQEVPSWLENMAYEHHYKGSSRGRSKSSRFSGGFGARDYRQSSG
Method: RNA Bind-n-Seq
Form: RNA
Medium: in vitro
Tested at: 90 pmol
Setting: 4-mer, random 30-nt RNA, single round
With: 3 µM DMDA-PatA, 2 mM ADP, 2 mM phosphate
Relative to: input library
Reading: higher = stronger binding
Strand | 4-mer enrichment
CGCC | 0.948 fold
UACA | 0.969 fold
AUAG | 0.979 fold
ACAG | 0.942 fold
GGUG | 1.17 fold
CCCC | 1.33 fold
GGAG | 1.32 fold
CCCA | 1.16 fold

Block 2
Compound: COCCOc1nc(-c2ccc(Cl)nc2)nc2c1CN(C(=O)c1ncn3ccccc13)CC2
Tested at: 0.1 µM
target | effect on | method | remaining binding
SRSF protein kinase 3 (SRPK3, Homo sapiens, UniProt Q9UPE1) | cell-free assay | competition with immobilised ligand | 66%
Tyrosine-protein kinase ABL1, phosphorylated (ABL1, Homo sapiens, UniProt P00519, F317I) | binding |  | 100%
Protein kinase C theta type (PRKCQ, Homo sapiens, UniProt Q04759) | cell-free assay | competition with immobilised ligand | 100%
Receptor-type tyrosine-protein kinase FLT3 (FLT3, Homo sapiens, UniProt P36888, F691L/ITD) | cell-free assay | competition with immobilised ligand | 64%
Serine/threonine-protein kinase 24 (STK24, Homo sapiens, UniProt Q9Y6E0) | cell-free assay | competition with immobilised ligand | 100%
Tyrosine-protein kinase ABL1, non-phosphorylated (ABL1, Homo sapiens, UniProt P00519, F317L) | cell-free assay | competition with immobilised ligand | 100%
Tyrosine-protein kinase JAK1, JH2 (JAK1, Homo sapiens, UniProt P23458) | cell-free assay | competition with immobilised ligand | 76%
Myotonin-protein kinase (DMPK, Homo sapiens, UniProt Q09013) | cell-free assay | competition with immobilised ligand | 72%
Ephrin type-A receptor 8 (EPHA8, Homo sapiens, UniProt P29322) | cell-free assay | competition with immobilised ligand | 100%
Interleukin-1 receptor-associated kinase 3 (IRAK3, Homo sapiens, UniProt Q9Y616) | cell-free assay | competition with immobilised ligand | 100%
Dual specificity mitogen-activated protein kinase kinase 7 (MAP2K7, Homo sapiens, UniProt O14733) | cell-free assay | competition with immobilised ligand | 95%
Dual specificity mitogen-activated protein kinase kinase 3 (MAP2K3, Homo sapiens, UniProt P46734) | cell-free assay | competition with immobilised ligand | 93%
Tyrosine-protein kinase ABL1, non-phosphorylated (ABL1, Homo sapiens, UniProt P00519, T315I) | cell-free assay | competition with immobilised ligand | 75%
Cyclin-dependent kinase 18 (CDK18, Homo sapiens, UniProt Q07002) | cell-free assay | competition with immobilised ligand | 100%
Calcium/calmodulin-dependent protein kinase type 1B (PNCK, Homo sapiens, UniProt Q6P2M8) | cell-free assay | competition with immobilised ligand | 100%
Casein kinase I isoform delta (CSNK1D, Homo sapiens, UniProt P48730) | cell-free assay | competition with immobilised ligand | 84%
Calcium/calmodulin-dependent protein kinase kinase 2 (CAMKK2, Homo sapiens, UniProt Q96RR4) | cell-free assay | competition with immobilised ligand | 100%
Cyclin-dependent kinase-like 1 (CDKL1, Homo sapiens, UniProt Q00532) | cell-free assay | competition with immobilised ligand | 61%

Block 3
Target: RING finger protein unkempt homolog, zinc fingers 1-6, GST-SBP tag (UNK, Homo sapiens, UniProt Q9C0B0, residues 30-357)
Chain of UniProt Q9C0B0 (30-357, looked up): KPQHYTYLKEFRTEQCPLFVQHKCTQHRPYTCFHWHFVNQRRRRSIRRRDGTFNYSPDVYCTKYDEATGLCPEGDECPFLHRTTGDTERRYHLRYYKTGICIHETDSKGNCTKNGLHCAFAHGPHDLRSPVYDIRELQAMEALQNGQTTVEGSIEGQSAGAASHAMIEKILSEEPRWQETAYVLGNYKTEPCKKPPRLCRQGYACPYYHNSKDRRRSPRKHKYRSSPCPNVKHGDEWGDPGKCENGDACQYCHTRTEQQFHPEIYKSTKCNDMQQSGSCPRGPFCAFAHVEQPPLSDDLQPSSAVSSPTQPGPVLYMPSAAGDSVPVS
Method: RNA Bind-n-Seq
Form: RNA
Medium: in vitro
Tested at: not given
Setting: RNA with constant flanks, human and mouse sites, ends assumed
Relative to: input RNA pool
Reading: higher = stronger binding
All sequences stand within: GGGAGUUCUACAGUCCGACGAUC … CAACAGAGGAUUGAGCAUCA
Strand | bound/input enrichment [ratio]
AGCCGAGGAGACCCCGCGCAGUGCUGCCAACGCCCCGGUGGAGAAGCUGAGGUCAUCAUCAGAUUUGAAAUAUUUAAAGUGGAUACAAAACUAUUUCAGCAAUGCAGACAAUUAAGUGUG | 0.283
UGUCAGCAGAAACAUUUAAUGUGAAAUAAUUCUGUAUUUCUGAGACAAGAUCAACACAGUAGUUCUUUACAUUGAGCUGAGGUGAAUGUAUACUUAAAAAUACUCUAUUUUCUUUUUAUA | 0.312
CUUAAAAUCAAAUGUAAAUCAAUUACAGAUUAAAAAAAAAAGCCUGUAUUUAACUCAUAUGAUCUCCCUUCAGCAACUUAUUUUGCUUUAAUUGCUUUAAAUCUUAAGCAAUAUUUUUUA | 0.264
AUGAAUCUAAAUUGCAUUUAUGCAUUGGAUUUGGCUCACAGACCUACGUAAGGAGCACACUGUAUUAUGAAACAUUGUCACAGUAUAGCUAGACAUUGUACUUCGUCCUUUUCUAGCCCU | 0.153
CCGCUGGACAUCGAGUGGCUGAUAUCACCAGCUGAUAAUCAGAAGGUGGAUCAAGUGAUUAUUUUAUAUUCUGGAGACAAAAUUUAUGAUGACUACUAUCCAGAUCUGAAAGGCCGAGUA | 0.308
CAGUUUGGAGCCACAGACCUGGAUGUGGCCAACUUCUACGUUUCCCAACUGCAGACUCCCAUAGGUGUACAGGCCGAGGCCUUGCUUCGAUGUAGUGACAUAAUUUCCUAUUCUUUCAAG | 0.808
AAAGGGAAAUCUGUCCGUGUUCAUGUACAGUUCUUUGAUGACAGCCCAACAAGGGGCUGGGUUAGCAAAAGGAUGUUAAAGCCAUAUACAGGUUCAAAGUCAAAGGAAGCCCAAAAGGGA | 0.227
UCUUAUAAUAGUCUAGUGCUAUAGAUGUUCAUGGAUUGUUUGAUGCUCCAUAACUCCUCAUUUAGAUAACUUUUUAGUAACAGCAUCUUCCAGUGGCGACAAAAUAGUUGUCUCAAGUUG | 40.7

Block 4
Structure (SMILES): CN(C)CCCn1cc(C2=C(c3c[nH]c4ccccc34)C(=O)NC2=O)c2ccccc21
Effect on: enzyme activity
Action: inhibitor
Tested at: 0.5 µM
Relative to: control
target | remaining activity [%]
Ephrin type-B receptor 4 (EPHB4, Homo sapiens, UniProt P54760) | 86.8
Ephrin type-B receptor 1 (EPHB1, Homo sapiens, UniProt P54762) | 87.4
Tyrosine-protein kinase Blk (BLK, Homo sapiens, UniProt P51451) | 87
Cyclin-dependent kinase 4, with cyclin D3 (CDK4, Homo sapiens, UniProt P11802) | 67
Cyclin-dependent kinase 6, with cyclin D3 (CDK6, Homo sapiens, UniProt Q00534) | 73.3
Ribosomal protein S6 kinase alpha-5 (RPS6KA5, Homo sapiens, UniProt O75582) | 17

For quick reference, copied from above (block 1):
Strand | 4-mer enrichment
CGCC | 0.948 fold
UACA | 0.969 fold
AUAG | 0.979 fold
ACAG | 0.942 fold
GGUG | 1.17 fold
CCCC | 1.33 fold
